# Experimental data of several laboratories.
# Values joined by “and” are separate records of one study, mostly repeats; a detail may differ. ± marks the error that the study gave.
SMILES,test,test system,conditions,how to read,measurement,value
C[C@@H](NC(=O)N1C(=O)[C@H](Cc2ccnc(N)c2)[C@H]1C(=O)O)C1CCCCC1,,human,"iv infusion, 2.25 mg/kg/h, 24 h",,PT AUEC,1660 h·s
C=CCn1c(=O)c2cnc(Nc3ccc(N4CCN(C)CC4)cc3)nc2n1-c1ccc2c(n1)[C@@](O)(CC)CC2,,"BALB/c nude mouse, LoVo xenograft","oral, 80 mg/kg once daily, 5 d on 2 d off ×3, day 24",baseline: vehicle,tumour volume,74.5%
C[C@H]1O[C@@H](O[C@H]2CC[C@@]3(C)[C@@H](CC[C@]4(C)[C@@H]3C=C[C@]35OC[C@@]6(CCC(C)(C)C[C@H]63)[C@@H](O)C[C@]54C)[C@]2(C)CO)[C@H](O)[C@@H](O[C@@H]2O[C@H](CO)[C@@H](O)[C@H](O)[C@H]2O)[C@H]1O,,"chronic-plus-binge ethanol mice, plasma","oral, 15 mg/kg/day for 7 d, 168 h",,γ-GT activity,19.8 U/L and 22.1 U/L and 24.4 U/L and 24.8 U/L and 20.4 U/L and 23.1 U/L and 30.5 U/L and 20.6 U/L
N=C(N)NCCC[C@H](NC(=O)[C@H](CCCNC(=N)N)NC(=O)[C@H](CCCCN)NC(=O)[C@H](CCC(N)=O)NC(=O)[C@H](CCCCN)NC(=O)[C@H](Cc1ccc(O)cc1)NC(=O)[C@@H](N)CCCCN)C(=O)N[C@@H](CO)C(=O)N[C@@H](Cc1ccc(O)cc1)C(=O)N[C@@H](CCCCN)C(=O)O,,dentin hypersensitivity patients,"5 µg/tooth, day 36 post-study visit, two teeth per subject, unit not given",baseline: baseline,VAS change,-24.1 ± 24.4
COc1ccccc1OCC(O)CN1CCN(CC(=O)Nc2c(C)cccc2C)CC1 (stereo not shown),barrier function (TEER),human ileal GI microtissue EpiIntestinal-FT,,,IC15,> 100000 nM
O=C(O)/C=C/c1nccc2c3ccccc3n(Cc3ccc(C4CC4)c4ccccc34)c12,,"mouse, acute hyperuricaemia model","oral, 2 mg/kg",,serum uric acid,391 µM
COc1cc2cc(-c3ccc(CC(=O)Nc4cc(C(C)(C)C(F)(F)F)no4)cn3)cnc2cc1OC,RECIST v1.1,human RET-altered solid tumours,"dose not given, phase I parts A and B",,best overall response PR,28%
O=C(O[C@@H]1[C@@H](O)[C@H](Oc2cc(O)c3c(c2)O[C@H](c2ccccc2)CC3=O)O[C@@H]2COC(=O)c3cc(O)c(O)c(O)c3-c3c(cc(O)c(O)c3O)C(=O)O[C@@H]12)c1cc(O)c(O)c(O)c1,laser-injury thrombosis model,"mouse, cremaster arterioles","intravenous infusion, dose not given",baseline: control,fibrin formation,21 ± 3.7%
Cc1nc(-c2ccc(OCC(C)C)c(C#N)c2)sc1C(=O)O,,"mouse, chronic hyperuricaemia model, serum",dose not given,,serum creatinine,15.2 µM and 35.6 µM and 32.6 µM and 39.8 µM and 47.4 µM
c1ccc(-c2n[nH]cc2-c2ccnc3ccccc23)nc1,"kinase binding, competitor, MIB/MS competition, refers to: TOR1",Candida albicans cell lysate,1 µM,baseline: DMSO,log2 fold change,1.01
CN[C@@H]1COc2c(S(=O)(=O)NC(=O)Nc3c4c(cc5c3CCC5)CCC4)cnn2C1,refers to: IL-18,"human participants, whole blood ex vivo","450 mg single dose, 48 h, IL-18, circulating, adjusted for, with: LPS/ATP",baseline: baseline,inhibition,-45.8%
Cc1cc(C)c(CNC(=O)c2cc(Cl)c3c(c2C)O[C@@](C)([C@H]2CC[C@H](N(C)C)CC2)O3)c(=O)[nH]1,,relapsed/refractory ATLL patients,"dose not given, modified ATLL criteria 2009",,disease control rate (CR+CRu+PR+SD),71%
C[C@H]1C[C@H]2CSC(N)=N[C@@]2(c2nc(NC(=O)c3ccc(OC(F)F)cn3)cs2)CO1,,"healthy adults, fed, plasma","oral, 200 mg single dose, 6 h","baseline: baseline, placebo-adjusted",plasma Aβ1-40 change,-77.1%
OC(CCN1CCCCC1)(c1ccccc1)C1CC2C=CC1C2 (stereo not shown),resting-state EEG,healthy elderly humans,"oral, 4 mg, eyes closed, LS mean",baseline: baseline,"delta power change, EEG, in Pz-O1",27.2%
CC(C)(O)c1coc(S(=O)(=O)NC(=O)c2cc3ccccc3n2Cc2ccc(Br)c3ccccc23)c1,,"mouse, acute hyperuricemia model",dose not given,,serum uric acid,178 µM and 546 µM and 261 µM and 498 µM and 311 µM
N#Cc1ccc2c(-c3ccncc3)c(-c3ccc(F)cc3)nn2c1,"kinase binding, competitor, MIB/MS competition, refers to: CKA2",Candida albicans cell lysate,100 nM,baseline: DMSO,log2 fold change,0.124
NC(=O)c1cnc2[nH]ccc2c1N[C@@H]1[C@@H]2CC3C[C@H]1C[C@@](O)(C3)C2,"CD4+ effector memory T cells, flow cytometry","Caucasian humans, peripheral blood",60 mg single dose,baseline: baseline,percent change,0.02%
CN(C(=O)n1cnc(-c2ccc[n+]([O-])c2)c1)C1CCCCC1,,"mice, formalin paw test","oral, 1 mg/kg, late phase",direction not given,licking time score,13.4
CCN1CCN(Cc2ccc(Nc3ncc(F)c(-c4cc(F)c5nc6n(c5c4)[C@H](C)CCC6)n3)nc2)CC1,,human advanced solid tumours,"200 mg, phase Ia monotherapy RECIST 1.1",,complete response,0%
COc1ccc([C@@H](O)c2cc(-c3ncnc4cc(N5CCOCC5)ccc34)c(F)cc2Cl)nn1,RECIST version 1.1,"patients, advanced solid tumours","200 mg twice daily, with: avelumab",baseline: patients,disease control rate,1%
O=C(O)CSc1nnc(Br)n1-c1ccc(C2CC2)c2ccccc12,,"mouse, acute hyperuricaemia model, serum","oral, 2 mg/kg",baseline: vehicle model,serum uric acid decrease,41.1%
[Cl-].[Cl-].[Pt+2].[Ru+2].c1ccc(-c2nc3cc4ccccc4cc3nc2-c2ccccn2)nc1.c1cnc2c(c1)ccc1cccnc12.c1cnc2c(c1)ccc1cccnc12,,,"concentration not given, first substitution step, with: L-methionine",,activation enthalpy,6.21 ± 0.478 kcal/mol
N#Cc1ccc2c(c1)[C@H]1CCCN(C(=O)c3ccc4[nH]cnc4c3)[C@H]1C2,,"human, Phase II trial","oral, 240 mg once daily, day 28, adjusted mean, SE",,HbA1c change from baseline,0.11%
CCCOc1ccc(-c2ccc(C#N)cc2)cc1,"proteomics, refers to: Slc38a7",rat placenta,"concentration not given, uterine perfusion, all three doses",,protein level,increased
FC(F)(F)Oc1cccc(-c2cnc3ccc(-c4ccncc4)nn23)c1,,"MDA-MB-231 xenograft, NSG mouse","oral, 10 mg/kg daily, day 8",higher = larger tumour,tumour size,0.0907 a.u. and 0.04 a.u. and 0.137 a.u. and 0.172 a.u. and 0.075 a.u.
NCC(=O)Nc1cncc(-c2nn3c(=O)cc(N4CCNCC4)nc3s2)c1,"ADP-induced platelet aggregation, light transmission aggregometry","human, stable CAD on aspirin, ex vivo platelets","subcutaneous, 0.04 mg/kg, 15 min post-dose, mean value, with: ADP 20 µM",,inhibition,53.5%
[Cl-].[Cl-].[Pt+2].[Ru+2].c1ccc(-c2nc3ccccc3nc2-c2ccccn2)nc1.c1cnc2c(c1)ccc1cccnc12.c1cnc2c(c1)ccc1cccnc12,"chloride substitution, UV-vis kinetics",aqueous buffer,"pH 7.2, 35 °C, second substitution step, with: guanosine 5'-monophosphate",,activation free energy,20.6 ± 0.956 kcal/mol
O=P(O)(O)C(Cl)(Cl)P(=O)(O)O,,"Mus musculus, sham-operated, hippocampal fissure","concentration not given, day 1",baseline: total area,Iba1-positive area,0.42% and 0.64% and 0.33%
CN[C@@H](C)C(=O)N[C@H]1CN(S(=O)(=O)c2cccc(S(=O)(=O)N3CC[C@H]4CC[C@@H](C(=O)NC(c5ccccc5)c5ccccc5)N4C(=O)[C@@H](NC(=O)[C@H](C)NC)C3)c2)CC[C@H]2CC[C@@H](C(=O)NC(c3ccccc3)c3ccccc3)N2C1=O,RECIST 1.1,advanced pancreatic cancer patients,"dose not given, prior therapy, with: AG",,disease control rate,50%
CC(=O)NCC(=O)NCC(=O)N[C@H](C(=O)N[C@@H](Cc1ccc(O)cc1)C(=O)N[C@@H](CO)C(=O)N[C@H]1CSSC[C@@H](C(=O)N[C@@H](CCCNC(=N)N)C(=O)N2CCC[C@H]2C(=O)N[C@@H](CCC(N)=O)C(=O)N[C@@H](CCCNC(=N)N)C(=O)NCC(=O)NCCC(=O)N[C@@H](CCCCNC(=O)CN(CC(=O)NCCCC[C@H](NC(=O)CCNC(=O)CNC(=O)[C@H](CCCNC(=N)N)NC(=O)[C@H](CCC(N)=O)NC(=O)[C@@H]2CCCN2C(=O)[C@H](CCCNC(=N)N)NC(=O)[C@@H]2CSSC[C@H](NC(=O)[C@H](CO)NC(=O)[C@H](Cc3ccc(O)cc3)NC(=O)[C@@H](NC(=O)CNC(=O)CNC(C)=O)[C@@H](C)O)C(=O)N[C@@H](Cc3c[nH]cn3)C(=O)N[C@@H](Cc3ccccc3)C(=O)NCC(=O)N[C@@H](C)C(=O)N[C@@H](CC(C)C)C(=O)N[C@@H]([C@@H](C)O)C(=O)N[C@@H](Cc3c[nH]c4ccccc34)C(=O)N[C@@H](C(C)C)C(=O)N2)C(N)=O)C(=O)CCN)C(N)=O)NC(=O)[C@H](C(C)C)NC(=O)[C@H](Cc2c[nH]c3ccccc23)NC(=O)[C@H]([C@@H](C)O)NC(=O)[C@H](CC(C)C)NC(=O)[C@H](C)NC(=O)CNC(=O)[C@H](Cc2ccccc2)NC(=O)[C@H](Cc2c[nH]cn2)NC1=O)[C@@H](C)O,,healthy BALB/c mice,"subcutaneous, 0.16 mg/kg, 4 d, single dose",,haemoglobin,158 g/L
CC(C)n1c(C2CCNCC2)nc2c([N+](=O)[O-])c(Br)c(Br)cc21,,"patients with AML, bone marrow",all dose levels,,minimum blast reduction,-4%
CSCCNc1nc(SCCC(F)(F)F)nc2c1ncn2[C@@H]1O[C@H](COP(=O)(O)OP(=O)(O)C(Cl)(Cl)P(=O)(O)O)[C@@H](O)[C@H]1O,"platelet aggregation, light transmission aggregometry","human patients, platelet-rich plasma","dose not given, 15 min, with: TRAP 5 µM",,inhibition,22.9 ± 27.1%
COc1cc(F)c([C@@H]2CNC(=O)[C@H]2NC(=O)Nc2ccccc2)c(F)c1,LV haemodynamics,"rat, myocardial ischaemia-reperfusion","1 mg/kg, 1008 h, 6 weeks post-injury",,ejection fraction,57 ± 19%
COc1cccc2c1c(O)c(C(=O)N(C)c1ccc(C(F)(F)F)cc1)c(=O)n2C,,"mouse, CP model, serum","0.154 µmol/kg, 4 weeks",,serum IL-6,decreased
Cc1n[nH]c2ccc(-c3cc(OC[C@@H](N)Cc4ccccc4)cnc3-c3ccoc3)cc12,"kinase binding, competitor, MIB/MS competition, refers to: YAK1",Candida albicans cell lysate,1 µM,baseline: DMSO,log2 fold change,-0.0276
c1ccc(-c2cc(-c3ccccc3)n(Cn3ccnc3)n2)cc1,,"rat, STZ-nicotinamide diabetic","150 mg/kg, 168 h, full-thickness excision wound",,wound size,16.6 mm
CC(C)NCC(O)c1ccc(O)c(O)c1 (stereo not shown),,"ventricular cardiomyocytes, C57BL/6 mouse","dose not given, 0.816 s",,sarcomere length,1.57 µm
CC(C)C[C@H](NC(=O)[C@@H](Cc1c[nH]c2ccccc12)NC(=O)[C@H](Cc1ccc(O)cc1)NC(=O)[C@H](CO)NC(=O)[C@H](Cc1c[nH]c2ccccc12)NC(=O)[C@H](Cc1c[nH]cn1)NC(=O)[C@@H]1CCC(=O)N1)C(=O)N[C@@H](CCCNC(=N)N)C(=O)N1CCC[C@H]1C(=O)NCC(N)=O,,"Chinese children, central precocious puberty, serum","intramuscular, 22.5 mg day 1, month 6, month 12",,basal LH level,0.29 IU/L
C[C@@H](O)CCOC(=O)C[C@@H](C)O,refers to: C18:1 acylcarnitine,"human, plasma","60 min, log2-transformed values",,metabolite level,-3.23 ± 0.45 µmol/L
CC(C)c1c(C(=O)Nc2ccccc2)c(-c2ccccc2)c(-c2ccc(F)cc2)n1CC[C@@H](O)C[C@@H](O)CC(=O)O,ELISA,"cynomolgus monkey, male, plasma","40 mg/kg or 25 mg/kg, day 176",baseline: pretreatment,plasma PCSK9 change,-12.8%
CCN1/C(=C/C(C)=O)Sc2ccc(F)cc21,von Frey test,"wild-type mice, burn injury pain, burn-injured hind paw",10 mg/kg,,paw withdrawal threshold,increased
N#Cc1ccc2c(c1)[C@H]1CCCN(C(=O)c3ccc4[nH]cnc4c3)[C@H]1C2,,"T2DM patients with overweight or obesity, plasma","oral, 80 mg, day 15 (360 h), multiple dosing, mean",,"plasma 1,5-anhydroglucitol",15.1 µg/mL
CCS(=O)(=O)NC(=O)c1cc2ccccc2n1Cc1ccc(Br)c2ccccc12,,"mouse, acute hyperuricemia model",dose not given,,serum uric acid,438 µM and 202 µM and 296 µM and 440 µM and 562 µM and 279 µM and 636 µM
CC1(C)CCC(c2ccc(Cl)cc2)=C(CN2CCN(c3ccc(C(=O)NS(=O)(=O)c4ccc(N[C@H](CCN5CCOCC5)CSc5ccccc5)c(S(=O)(=O)C(F)(F)F)c4)cc3)CC2)C1,cell killing,"primary canine neoplastic B cells, dog 29",24 h,,EC50,1400 nM
O=C(O)CNC(=O)Cc1ccccc1,,"ventricular cardiomyocytes, C57BL/6 mouse","dose not given, 0.36 s",,sarcomere length,1.72 µm
C[C@H](Oc1ccc(Br)cc1-c1ccon1)C(=O)O,last response latency,"human, tibialis anterior muscle","1200 mg, 15 Hz, SAD",,difference from placebo,1.74%
